Measurements pooled from the literature.
Protocols differ between the studies behind these lines.
Target: Calcium/calmodulin-dependent protein kinase kinase 2 (CAMKK2, Homo sapiens, UniProt Q96RR4)

SMILES | assay | setting | scale | quantity | result
CNC1C[S+]2CC[S+]3CC[S+](C1)[Ru-4]321([N]=C=S)[n]2c3ccc(OC)cc3c3c4c(c5cc(F)c[n+]1c5c32)C(=O)NC4=O (centres unmarked) | KinomeScan | 0.1 µM | reference: untreated | remaining binding | 99%
Nc1ncc(-c2cc(-c3cnn(CC(F)(F)F)c3)ncc2F)nc1C(=O)NC1CNCC(F)C1 (centres unmarked) | enzyme activity | 1 µM | reference: DMSO control | remaining activity | 95.3%
Cc1cccc(-c2ccc3nc(NC(=O)C4CCOCC4)nn3c2)c1 | enzyme activity, Dundee kinase panel | 10 µM | – | remaining activity | 89%
C=CC(=O)N1CCCC(n2c(=O)c3ncccc3n(Cc3ccc(Oc4ccccc4)cc3)c2=O)C1 (centres unmarked) | cell-free assay, competition with immobilised ligand | 1 µM | – | remaining binding | 100%
O=C(Cc1ccc(OCc2ccccc2)cc1)NC1(C(=O)O)CCN(C(=O)c2ccc(-c3cccc(Cl)c3)cc2)CC1 | enzyme activity, inhibitor | 10 µM | – | activity vs control | 108%
CNC(=O)C1CCN(c2cc(C)c(F)cc2NC(=O)c2ccc(-c3cc(O)ccc3C)c(C)c2)CC1 | binding, competition with immobilised ligand | 1 µM | – | remaining binding | 90%
c1ccc2c(Nc3cc(C4CCC4)[nH]n3)nc(Nc3ccc4nc[nH]c4c3)nc2c1 | enzyme activity, inhibitor | 0.25 µM | – | remaining activity | 2%
Nc1ncc2c(n1)-c1c([nH]c3ccc(C4=CCOCC4)cc13)CCC2 | binding, competition with immobilised ligand | 1 µM | – | remaining binding | 100%
Cc1cnc2nc1Nc1cccc(c1)COC/C=C/COCc1cc(ccc1OCCN1CCOCC1)N2 | binding | 0.1 µM | – | remaining binding | 100%
Cc1cccc(-c2ccc3nc(NC(=O)C4CCCCC4)nn3c2)c1 | enzyme activity, Dundee kinase panel | 10 µM | – | remaining activity | 47%
COc1cc(Nc2nc(C)cc(-c3cnn4nc(OC)ccc34)n2)cc(C(F)(F)F)c1 | inhibitor | 1 µM | reference: control | remaining activity | 100%
C=CC(=O)N1Cc2nc(-c3cc(-c4cc(Cl)cnc4Cl)c(F)cc3F)n(-c3ccncn3)c2C1 | cell-free assay, inhibitor | 1 µM | – | inhibition | -0.5%
Nc1nc(Nc2ccccc2)sc1C(=O)c1ccccc1 | enzyme activity, inhibitor | 10 µM | – | remaining activity | 15%
NC(=O)C[C@H]1CCc2sc3ncnc(O[C@H]4CC[C@H](N5CCOCC5)CC4)c3c21 | enzyme activity, inhibitor | 10 µM | – | inhibition | 13%

A few entries again:
SMILES | assay | setting | scale | quantity | result
C=CC(=O)N1Cc2nc(-c3cc(-c4cc(Cl)cnc4Cl)c(F)cc3F)n(-c3ccncn3)c2C1 | cell-free assay, inhibitor | 1 µM | – | inhibition | -0.5%
